Measurements from different studies.
Every numbered part comes from another study and shows a few of its results, in no order.

Set 1
Target: RING finger protein unkempt homolog, zinc fingers 1-6, GST-SBP tag (UNK, Homo sapiens, UniProt Q9C0B0, residues 30-357)
Chain of UniProt Q9C0B0 (30-357, looked up): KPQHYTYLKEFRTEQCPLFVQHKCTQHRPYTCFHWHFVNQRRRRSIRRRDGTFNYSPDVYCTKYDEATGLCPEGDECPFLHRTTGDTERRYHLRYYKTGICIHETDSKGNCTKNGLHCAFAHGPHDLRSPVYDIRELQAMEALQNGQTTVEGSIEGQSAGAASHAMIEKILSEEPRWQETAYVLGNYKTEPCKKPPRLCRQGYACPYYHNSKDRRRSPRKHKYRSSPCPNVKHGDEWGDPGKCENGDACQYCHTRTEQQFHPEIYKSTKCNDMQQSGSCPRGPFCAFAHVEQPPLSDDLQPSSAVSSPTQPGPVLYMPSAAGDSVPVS
Technique: RNA Bind-n-Seq
Form: RNA
Medium: in vitro
Concentration: not given
Setting: RNA with constant flanks, human and mouse sites, ends assumed
Baseline: input RNA pool
Reading: higher = stronger binding
Quantity: bound/input enrichment
Shared flanks, not repeated: GGGAGUUCUACAGUCCGACGAUC … CAACAGAGGAUUGAGCAUCA
UUCAGGAAGGGCCGGGAAGACAGAGCUCCACUCCUGAAGACGUUCAGCUUCUUGGGCUUUGAGAUUGUGCGUCCAGGUCAUCCCUGUGUCCCCUCUCGGCCAGAUGUGAUGUUUAUGGUU: 0.105 ratio
ACAAGACAAACAUAUGUUGGAUUCGCCUCAAAAAUCAAACAUCAAAUACAGAGGAAAUGGAUUAUCCAUCACUGGGACAGAGCAAUUUGAAAGGAAAUUAUCUUCACCAAAAAAACUUAA: 0.142 ratio
GUGUGUAACUCUUGGGUACUUGAGCAGAUGGAAUAUUCCAGAGGUGGGAGGUGGGAGGGGAGGGGAGAAGUCCCAAACAAAGUGUUCUUGCUCUGACCCAUAUUAAUCUUGUAUGCUUGG: 0.575 ratio
UUCUCAGCAUGGGGAAAUAACAGUUCUCAGGGACAGUCUACUCAGAGCUCUGGAUAUAGUAGCAAUUAUGCUUAUGCACCUAGCUCCUUAGGUGGAGCCAUGAUUGAUGGACAGUCAGCU: 1.2 ratio
GUUUUUGCUUGUUUUGGUUUUGGUUGUUUGCAGAUUGUUGGCAUAUAUCACCAUUCUUGAUCUUAUUGAGAUGUGUAUUGCUAGCUCCUAUUGGUUUGAUAAUUUUCCUAUAGUUACUGG: 0.48 ratio
GAUCUCCAUACAAAUGUUGCCACUGCUGUUUUAGAACAUAUAAAGGCAAGAAAAUUGGAUGUAUAUUUUGAAUAUGAAGAAAAAAUAAUGAGCAAAACUACUCUGGAUAAAUCUCUUCUA: 0.256 ratio
GAAAGUCUGGAAAACAUUCCUUCUGUUAAGAAGAUUAUAAAGCAGAUCAUAGCCCAUUCCAGCAAAGUUCUGCAUUUCCCCAAUCCUGAGGACAAGAAACUGGAAGAAAUCAUCCUUCAG: 0.126 ratio
UCUCCGCUGAACCCCAUUUCUUCUGUUUCAUAGUGCAGAAGUAUUCUUUCAACUAUAUUUUUAGUGGACUUGUUUUAAUUUUAGAGGAAUUUCCAGUACAGAUGCUGUGAGCUGACAUGG: 37.8 ratio
GAUUAUACAAUUCCCGAUGAGUAUAGAAUCGGACCAUAUCAGCCUAAUGUUCCUGUUGGUAUAGACUAUGUGAUACCUAAAACAGGGUUUUACUGUAAGCUGUGUUCACUCUUUUAUACA: 0.11 ratio
UCAGAACUCAUCUCCACUCGUUUCACAGGCGCCACUGGCAGAGCAUUUCUUUUUAACAAGGUAGUUAACCUGCAGUACAGUGAAGUUCAAGAUCGGGUCAUGCUCACUGGCCGCCACAUG: 0.138 ratio
UACAUCGCAUUAGACAUUUUUACAUGAGAAAAGUCAAAUUUACUCAACAGAAUUACCAUGAUAGACUUUCACAAAUUCUAACAGAUUUCCCCAAAUUGGAUGAUAUUCAUCCGUUCUAUG: 6.08 ratio

Set 2
Target: Sal-like protein 4, full length isoform B (SALL4, Homo sapiens, UniProt Q9UJQ4-2, residues 1-616)
Technique: universal PBM
Form: double-stranded DNA, one strand shown
Medium: in vitro
Concentration: not given
Setting: 8-mer, flanks averaged, mean of replicates
Reading: higher = stronger binding
Quantity: E-score
ACGATCAC: -0.0948
TGCGCACA: -0.0299
CCGGAGAA: -0.201
GAGGCCAC: -0.269
GAGAACCA: -0.15
AAGGACAT: 0.0819
GCCCCACC: -0.203
CAATAGGC: 0.0315
AATGCTAC: 0.188
CAACTTAA: 0.139
ACAAGCAA: 0.144
CGTCGTGA: -0.256
CCGCAGGA: -0.378
CACATCGC: -0.184
CTAATGAA: 0.149
AAATTTCC: 0.107
GAGTAGAC: -0.0942
CTGTGGAC: -0.17

Set 3
Target: RNA binding protein fox-1 homolog 2, RRM domain, GST-SBP tag (RBFOX2, Homo sapiens, UniProt O43251-10, residues 100-194)
Technique: RNA Bind-n-Seq
Form: RNA
Medium: in vitro
Concentration: 365 nM
Setting: natural RNA segment, single round, ends assumed
Baseline: no-protein control
Reading: higher = stronger binding
Quantity: RBNS enrichment (R)
Shared flanks, not repeated: GGGAGUUCUACAGUCCGACGAUC … UGGAAUUCUCGGGUGCCAA
Residues (chain): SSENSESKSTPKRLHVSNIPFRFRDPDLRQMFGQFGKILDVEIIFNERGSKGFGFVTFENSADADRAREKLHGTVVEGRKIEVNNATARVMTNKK
CCAGCAAGGGUGACUCACUAGACUCAGGAUGUAGCCUGAGCAGUGUCACCCAGAGUAGCGGCUGCCCUGGUAGCCGAGAGCAGGCAAGGCUCUAAGAGCACUGUGCUUGG: 0.266
UGAAAUAAGGUUUCAAUAUACAUUUACAUACUAUAUAUAUAUUUGGCAACUUGUGUUUGUAUAUAAAUAUAUAUAUAUAUAUAUAUGUUUAUGUAUAUAUGUGAUUCUGA: 2.53
GCUGUGCCCGGGGCAGGCCUGACGGGCGGGCAGCUGAGGAUCGCAGAGCCCAUCUGCCUUACAGCCAGCCGGACAGACGUCCUACUACAUGCCACCCCCUCAGAGGACGU: 0.341
AUACCUGUAACAAUCAGAAAUUCUUAAUCGCUUGUGGUAUGGUUUUAAUUCUAGAUGUUUUAUCUCUCUGGGAGUAUAGUUUAUAGAAACACAAAGUACUUGAUUUCCUG: 0.616
GCGUGGCCACGGGGGCAGUGUGAGGACCUCCCUGUCUCCCGGCUCCCCUCCCAGGGGAGCCAGCUGCUUGACCUAGCUCUUUGGGCCUCUCCUGCCCUCUGCUCUGCCUG: 0.909
UGGUGAGCCACAAAUUACAUUGAUUAUGUUGAACUUAUUAUUCUUCAAAGAAAAUAUUUUAAACCUGUGAAAACUCACUAAUUUUGUUAAUAUUUAUCAUGAUGGCAUCA: 0.696
CAGUCACCCCACAAGCCUACCAUCACGUCCCCUUCAGAGCUCACCUUGUAUCCUUAAUCCUCAGUAACAGAAUUAGUCACACAGGGGGGAACUGCCAGCAGGGUUGCUUA: 0.357
AGUAGCAGGACCUUGUGCUAACCACAAACUGCACCUUCUCAGUACUCACAACCCCGAUCUGCAAGGUAUCGUUAAGGAAUGAGUAUCUUCAGUGUGGCAAAGGAGUAGUG: 0.559
UAACAAAGCAUUAAUAAUUCUAAGGAUAAUCUCUAUUUUGUUGUGCUUUUUUGUAACUGUUUUAAAUAAAUCAAUUUGUACUGUAUAUUUGUACUUUUGUGAGAUCCUUU: 0.73
UUAUUUUAGGAUGCCAACAUGAGACCUGUAAUAAAAUAUGUAAUGGGGUUGAAGGCUGGGGAGGAGGAUCUACUGCUGUACAGCUAAUAAAUCAUAACGGAUUAACAGGC: 0.748
CUCUGGGAGGUCACUAAUCUACCCCUGAGGUACCCACUCUUUCUGUCGUAGCUUUCUUCUAGGGCCCCAACAAGCAAGCAUAAACCAGGCUUGCUGGCCAGCACUCCUUG: 0.347
CACGUAGAGGCCCAGAGAGUCCCUGGGGGUUCUGCUCUGACCGUGUGGGUGGUGAUCCUUGUCAGGAUGUACAGUCCUUGCUCCCACCCCAUCCGGGAUGGCCGCCUGUC: 0.394

Set 4
Target: Histone acetyltransferase KAT6A, both winged helices, GST fusion (KAT6A, Homo sapiens, UniProt Q92794, residues 1-181)
Technique: protein binding microarray
Form: double-stranded DNA, one strand shown
Medium: in vitro
Concentration: not given
Setting: 8-mer, flanks averaged, mean of 2 arrays, mostly near background
Baseline: not given
Reading: higher = stronger binding
Quantity: E-score
Construct (chain): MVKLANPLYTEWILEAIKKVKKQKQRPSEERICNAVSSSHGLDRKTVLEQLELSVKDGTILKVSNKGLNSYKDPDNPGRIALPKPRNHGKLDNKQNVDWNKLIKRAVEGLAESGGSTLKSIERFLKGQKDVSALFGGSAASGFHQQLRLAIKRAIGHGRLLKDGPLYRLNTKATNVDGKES
GAGCCTTA: -0.15
AGCGAGGC: 0.0334
CACTGCCC: -0.0411
CTCATTCA: -0.204
GTGTGCTA: -0.00724
CTCGTATA: -0.11
TAAAACTA: -0.0483
CTTGACGA: -0.0943
GCCGGTCC: 0.271
AGTGCGAG: -0.0616
AGGTTCCC: -0.0235
AAACACCA: -0.142
ATGCTCAC: 0.115
CCGAGCGC: 0.323
ATGAGTCG: -0.142
CCGTCACC: 0.165
AAACTGCT: -0.0294
CCAATTAG: -0.0769
AGGTGGGC: -0.167
CCGACCAA: 0.0201
CGCGACCG: 0.317
CAGCCTTC: -0.133
ACACACAC: -0.0504
CGGCAATC: 0.291
GAGAGGAA: -0.281

Other studies, line by line
PhoQ, residues 284 288 289 292 302 303 SNSSNI
fold induction (PhoP, residues 12 14 15 18 19 LHHSG (Escherichia coli, UniProt P23836); Sort-seq, refers to: YFP reporter; E. coli; PhoQ-PhoP variant library, added: 10 µM Mg2+; baseline: high Mg2+ state, higher = stronger signaling): 10.8
